{"data": "Results gathered from unrelated publications", "note": "Each numbered part is a random draw from the data of one study; scales do not carry over between parts.", "sequence of UniProt P28566 (whole entry, looked up)": "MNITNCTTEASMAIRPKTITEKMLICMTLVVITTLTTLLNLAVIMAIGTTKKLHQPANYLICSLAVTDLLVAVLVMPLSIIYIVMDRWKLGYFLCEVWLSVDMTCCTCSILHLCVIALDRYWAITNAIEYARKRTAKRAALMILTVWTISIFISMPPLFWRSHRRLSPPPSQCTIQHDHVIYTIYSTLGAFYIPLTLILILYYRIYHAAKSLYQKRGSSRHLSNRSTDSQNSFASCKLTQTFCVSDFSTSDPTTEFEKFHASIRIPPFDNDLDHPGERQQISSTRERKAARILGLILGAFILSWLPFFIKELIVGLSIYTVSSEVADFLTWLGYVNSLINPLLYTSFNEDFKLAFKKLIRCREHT", "sequence of UniProt Q8NFJ6 (whole entry, looked up)": "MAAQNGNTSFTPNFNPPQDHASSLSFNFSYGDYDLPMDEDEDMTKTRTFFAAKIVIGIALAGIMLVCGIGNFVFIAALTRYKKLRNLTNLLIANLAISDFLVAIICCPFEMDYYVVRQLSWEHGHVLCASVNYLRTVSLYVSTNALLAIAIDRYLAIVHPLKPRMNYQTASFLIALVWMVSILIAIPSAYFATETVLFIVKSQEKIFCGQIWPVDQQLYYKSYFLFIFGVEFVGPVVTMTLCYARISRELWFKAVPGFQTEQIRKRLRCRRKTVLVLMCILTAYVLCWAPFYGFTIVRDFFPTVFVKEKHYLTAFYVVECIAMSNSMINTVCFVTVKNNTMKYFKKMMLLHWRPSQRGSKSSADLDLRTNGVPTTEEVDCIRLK", "sequence of UniProt Q15391 (whole entry, looked up)": "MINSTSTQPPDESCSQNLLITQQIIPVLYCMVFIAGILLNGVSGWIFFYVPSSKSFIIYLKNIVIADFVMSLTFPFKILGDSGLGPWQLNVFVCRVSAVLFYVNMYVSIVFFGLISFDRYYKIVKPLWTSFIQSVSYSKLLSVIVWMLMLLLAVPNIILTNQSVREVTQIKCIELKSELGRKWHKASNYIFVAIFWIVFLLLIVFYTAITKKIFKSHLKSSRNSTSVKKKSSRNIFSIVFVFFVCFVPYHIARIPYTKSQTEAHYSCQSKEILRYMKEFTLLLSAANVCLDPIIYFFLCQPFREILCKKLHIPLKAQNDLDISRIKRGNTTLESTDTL", "sequence of UniProt P47900 (whole entry, looked up)": "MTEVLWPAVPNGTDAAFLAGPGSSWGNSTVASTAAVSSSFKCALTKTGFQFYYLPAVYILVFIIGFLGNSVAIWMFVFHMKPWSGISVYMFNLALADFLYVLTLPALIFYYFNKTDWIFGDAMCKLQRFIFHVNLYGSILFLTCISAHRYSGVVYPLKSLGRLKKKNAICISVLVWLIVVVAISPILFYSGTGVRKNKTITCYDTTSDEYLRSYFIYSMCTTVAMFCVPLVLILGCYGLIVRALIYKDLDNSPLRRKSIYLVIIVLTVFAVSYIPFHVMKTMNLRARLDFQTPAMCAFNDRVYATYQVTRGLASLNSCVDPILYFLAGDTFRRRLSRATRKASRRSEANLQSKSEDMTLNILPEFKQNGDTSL", "sequence of UniProt P41587 (whole entry, looked up)": "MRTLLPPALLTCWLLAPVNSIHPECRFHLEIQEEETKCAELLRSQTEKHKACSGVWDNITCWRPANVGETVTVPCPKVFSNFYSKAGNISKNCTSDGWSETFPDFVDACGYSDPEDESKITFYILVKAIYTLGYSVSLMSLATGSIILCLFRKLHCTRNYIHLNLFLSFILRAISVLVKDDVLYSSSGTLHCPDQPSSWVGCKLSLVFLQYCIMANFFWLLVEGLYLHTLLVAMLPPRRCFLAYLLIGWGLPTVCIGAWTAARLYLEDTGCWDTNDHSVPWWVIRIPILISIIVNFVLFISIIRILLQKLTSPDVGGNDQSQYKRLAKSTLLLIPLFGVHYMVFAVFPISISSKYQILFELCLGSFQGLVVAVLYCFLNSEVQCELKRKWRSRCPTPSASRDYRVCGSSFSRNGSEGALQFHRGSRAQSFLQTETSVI", "sequence of UniProt P41146 (whole entry, looked up)": "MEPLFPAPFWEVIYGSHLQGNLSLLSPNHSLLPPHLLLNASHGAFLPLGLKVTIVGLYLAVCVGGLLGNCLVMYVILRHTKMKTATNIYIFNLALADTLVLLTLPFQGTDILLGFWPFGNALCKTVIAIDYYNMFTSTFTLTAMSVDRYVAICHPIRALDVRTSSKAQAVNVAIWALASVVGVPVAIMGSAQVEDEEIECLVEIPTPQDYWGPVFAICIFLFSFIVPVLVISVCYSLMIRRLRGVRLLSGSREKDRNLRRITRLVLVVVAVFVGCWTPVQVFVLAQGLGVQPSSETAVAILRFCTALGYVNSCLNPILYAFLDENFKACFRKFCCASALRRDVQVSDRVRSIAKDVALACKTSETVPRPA", "sequence of UniProt P28222 (whole entry, looked up)": "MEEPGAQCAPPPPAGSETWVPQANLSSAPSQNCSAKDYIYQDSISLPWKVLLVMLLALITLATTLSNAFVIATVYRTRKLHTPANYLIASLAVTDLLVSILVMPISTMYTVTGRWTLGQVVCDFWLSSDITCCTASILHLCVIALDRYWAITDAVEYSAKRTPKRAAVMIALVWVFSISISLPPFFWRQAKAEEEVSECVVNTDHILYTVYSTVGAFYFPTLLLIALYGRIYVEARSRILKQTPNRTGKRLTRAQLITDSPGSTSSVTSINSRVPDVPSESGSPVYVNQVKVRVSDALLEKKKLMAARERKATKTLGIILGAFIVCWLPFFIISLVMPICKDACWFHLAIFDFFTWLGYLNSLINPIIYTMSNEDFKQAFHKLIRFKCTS", "sequence of UniProt P49190 (whole entry, looked up)": "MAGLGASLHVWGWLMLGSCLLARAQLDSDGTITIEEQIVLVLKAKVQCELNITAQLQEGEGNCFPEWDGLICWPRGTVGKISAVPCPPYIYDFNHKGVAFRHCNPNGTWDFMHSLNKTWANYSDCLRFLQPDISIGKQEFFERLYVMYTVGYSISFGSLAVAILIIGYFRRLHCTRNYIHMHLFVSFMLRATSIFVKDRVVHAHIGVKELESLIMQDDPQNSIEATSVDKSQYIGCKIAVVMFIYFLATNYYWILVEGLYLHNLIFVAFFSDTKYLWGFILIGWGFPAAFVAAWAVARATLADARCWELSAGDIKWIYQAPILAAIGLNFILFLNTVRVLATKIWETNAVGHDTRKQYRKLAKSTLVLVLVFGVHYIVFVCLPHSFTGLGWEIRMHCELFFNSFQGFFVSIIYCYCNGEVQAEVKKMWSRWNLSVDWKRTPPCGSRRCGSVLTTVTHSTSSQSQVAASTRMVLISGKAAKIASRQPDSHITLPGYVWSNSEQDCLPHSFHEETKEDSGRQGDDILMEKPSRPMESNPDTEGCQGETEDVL", "sequence of UniProt P47898 (whole entry, looked up)": "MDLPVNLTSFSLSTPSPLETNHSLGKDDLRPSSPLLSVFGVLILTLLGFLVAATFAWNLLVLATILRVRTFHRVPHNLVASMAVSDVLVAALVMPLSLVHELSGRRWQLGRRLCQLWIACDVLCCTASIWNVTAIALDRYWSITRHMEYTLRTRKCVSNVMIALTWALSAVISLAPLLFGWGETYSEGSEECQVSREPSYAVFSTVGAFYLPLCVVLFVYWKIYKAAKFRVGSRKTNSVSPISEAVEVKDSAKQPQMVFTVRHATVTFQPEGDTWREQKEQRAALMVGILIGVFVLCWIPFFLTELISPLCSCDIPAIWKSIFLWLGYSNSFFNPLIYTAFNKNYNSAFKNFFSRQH"}
{"data": "Study 1", "target": "Diamine acetyltransferase 1 (Homo sapiens, UniProt P21673)", "mode": "inhibitor", "tested at": "10 µM", "relative to": "control", "Construct (P21673 1-171)": "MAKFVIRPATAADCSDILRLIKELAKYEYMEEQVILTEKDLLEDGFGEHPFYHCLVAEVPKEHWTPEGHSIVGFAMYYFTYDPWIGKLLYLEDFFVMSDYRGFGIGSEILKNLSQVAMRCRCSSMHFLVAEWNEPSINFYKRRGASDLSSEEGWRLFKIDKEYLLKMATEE"}
{"Compound": "C[C@H](CC[C@@]1(O)O[C@H]2C[C@H]3[C@@H]4CC=C5C[C@@H](O[C@@H]6O[C@H](CO)[C@@H](O[C@@H]7O[C@@H](C)[C@H](O)[C@@H](O)[C@H]7O)[C@H](O)[C@H]6O[C@@H]6O[C@@H](C)[C@H](O)[C@@H](O)[C@H]6O)CC[C@]5(C)[C@H]4CC[C@]3(C)[C@H]2[C@@H]1C)CO[C@@H]1O[C@H](CO)[C@@H](O)[C@H](O)[C@H]1O", "remaining activity": "104%"}
{"Compound": "CC1(C)CC[C@]2(C(=O)O)CC[C@]3(C)C(=CC[C@@H]4[C@@]5(C)CC[C@@H](O)C(C)(C)[C@@H]5CC[C@]43C)[C@@H]2C1", "remaining activity": "87%"}
{"Compound": "Cc1ccc(C(C)C)cc1O", "remaining activity": "93%"}
{"Compound": "Cc1occc(=O)c1O", "remaining activity": "84.6%"}
{"Compound": "COc1cc(/C=C/C(=O)OC[C@H]2O[C@@H](O[C@@H]3[C@@H](O)[C@H](O)[C@@H](CO)O[C@H]3c3c(OC)cc4oc(-c5ccc(O)cc5)cc(=O)c4c3O)[C@H](O)[C@@H](O)[C@@H]2O)ccc1O", "remaining activity": "63.2%"}
{"data": "Study 2", "method": "PRP chromatography estimate", "matrix": "1,9-decadiene/PBS", "pH": "7.4"}
{"Structure (SMILES)": "CC(C)C[C@@H]1NC(=O)[C@H](C)NC(=O)[C@@H](CC(C)C)NC(=O)[C@H](CC(C)C)NC(=O)[C@@H](Cc2cscn2)NC(=O)[C@H](CC(C)C)NC(=O)[C@@H](CC(C)C)NC1=O", "logD": -0.141}
{"Structure (SMILES)": "CC(C)C[C@@H]1NC(=O)[C@H](CC(C)C)NC(=O)[C@@H](CC(C)C)NC(=O)[C@H](C(C)C)NC(=O)[C@@H](Cc2cscn2)NC(=O)[C@H](C)NC(=O)[C@H](CCC(=O)N2CCCC2)NC1=O", "logD": -1.93}
{"Structure (SMILES)": "CC(C)C[C@@H]1NC(=O)[C@H](CC(C)C)NC(=O)[C@@H](CC(C)C)NC(=O)[C@H](C(C)C)NC(=O)[C@H](C(C)C)NC(=O)[C@H](C)NC(=O)[C@H](C)NC1=O", "logD": -1.3}
{"Structure (SMILES)": "CC(C)C[C@@H]1NC(=O)[C@H](CC(C)C)NC(=O)[C@H](CC(C)C)NC(=O)[C@H](C(C)C)NC(=O)[C@H](C)NC(=O)[C@H](Cc2cscn2)NC(=O)[C@H](CCC(=O)N2CCCC2)NC1=O", "logD": -1.93}
{"Structure (SMILES)": "CCC[C@H]1NC(=O)CSC[C@@H](C(=O)OCC)N(C)C(=O)[C@H](CC(C)C)NC(=O)[C@@H](C)N(C)C(=O)[C@H](CC(C)C)NC(=O)[C@H](C)N(C)C(=O)[C@H]2CCCN2C(=O)[C@@H](CC(C)C)NC(=O)CN(C)C1=O", "logD": -0.448}
{"data": "Study 3", "Compound": "NC(N)=NC(=O)c1nc(Cl)c(N2CCCCCC2)nc1N", "observed": "β-arrestin recruitment", "mode": "agonist", "method": "PRESTO-Tango", "tested at": "10 µM", "relative to": "untreated"}
{"target": "P2Y purinoceptor 1 (P2RY1, Homo sapiens, UniProt P47900)", "fold over basal": 0.45}
{"target": "P2Y purinoceptor 14 (P2RY14, Homo sapiens, UniProt Q15391)", "fold over basal": 1.31}
{"target": "PTH2R (Homo sapiens, UniProt P49190)", "fold over basal": 0.94}
{"target": "Vasoactive intestinal polypeptide receptor 2 (VIPR2, Homo sapiens, UniProt P41587)", "fold over basal": "0.66 fold"}
{"target": "Nociceptin receptor (OPRL1, Homo sapiens, UniProt P41146)", "fold over basal": 0.48}
{"target": "Prokineticin receptor 2 (PROKR2, Homo sapiens, UniProt Q8NFJ6)", "fold over basal": 0.78}
{"data": "Study 4", "SMILES": "CN(C)C(=O)c1sc2nc(N3CCC(S(C)(=O)=O)CC3)cc(C(F)(F)F)c2c1N", "observed": "ligand displacement", "tested at": "10 µM"}
{"target": "5-hydroxytryptamine receptor 5A (HTR5A, Homo sapiens, UniProt P47898)", "inhibition": "5.35%"}
{"target": "5-hydroxytryptamine receptor 1B (HTR1B, Homo sapiens, UniProt P28222)", "inhibition": "-10.7%"}
{"target": "5-hydroxytryptamine receptor 1E (HTR1E, Homo sapiens, UniProt P28566)", "inhibition": "2.45%"}
{"note": "For quick reference, copied from above (study 1):"}
{"Compound": "CC1(C)CC[C@]2(C(=O)O)CC[C@]3(C)C(=CC[C@@H]4[C@@]5(C)CC[C@@H](O)C(C)(C)[C@@H]5CC[C@]43C)[C@@H]2C1", "remaining activity": "87%"}
{"Compound": "Cc1ccc(C(C)C)cc1O", "remaining activity": "93%"}
